Measured values pooled from the literature.
Every numbered part comes from another study and shows a few of its results, in no order. Substitutions count along the parent as printed.

Study 1
Target: CCNA1, cyclin fold, Cln2 fusion (human)
Method: yeast growth competition, sequencing
Medium: yeast
Notes: weak parent motif
Relative to: not given
Direction: higher = stronger binding
Parent: SAMHD1 docking peptide (human); ASKSRVQLFKDDP
For `F9Q`, “normalised enrichment score” read 0.0389.
`S4C` — result for “normalised enrichment score”: 1.19.
For `S2M`, “normalised enrichment score” read 0.205.
`D12P` — result for “normalised enrichment score”: 0.353.
Under “normalised enrichment score”, `D11Q` is recorded as -0.073.
Under “normalised enrichment score”, `K3S` is recorded as 0.0637.
Under “normalised enrichment score”, `F9D` is recorded as 0.195.
`D12Q`: “normalised enrichment score” 0.00181.
`V6D`: “normalised enrichment score” -0.253.
`R5M` — result for “normalised enrichment score”: -0.258.
Under “normalised enrichment score”, `L8D` is recorded as 0.237.
`K10R`: “normalised enrichment score” 0.374.
For `K10G`, “normalised enrichment score” read -0.0602.

Study 2
Target: Histone acetyltransferase KAT6A, winged helix 1, GST fusion (KAT6A, Homo sapiens, UniProt Q92794, residues 1-85)
Method: protein binding microarray
Molecule type: double-stranded DNA, one strand shown
Medium: in vitro
Tested at: not given
Notes: 8-mer, flanks averaged, mean of 2 arrays, mostly near background
Relative to: not given
Direction: higher = stronger binding
Construct (chain): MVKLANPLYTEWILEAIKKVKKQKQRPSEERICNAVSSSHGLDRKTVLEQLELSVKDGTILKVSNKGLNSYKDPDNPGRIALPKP
`CCTGGCGA` gave an E-score of 0.171.
The E-score of `TCCCGCGA` is reported as 0.372.
With `GGTTAAAC` the E-score was 0.0279.
With `CGTGATAC` the E-score was 0.0083.
For `GCAGGTTA`, the E-score was 0.0967.
For `GGGCTTTA`, the E-score was 0.034.
`GAAGACTA` gave an E-score of -0.0855.
The E-score of `GTATCAAC` is reported as -0.0247.
`AATGGTTG` gave an E-score of -0.0186.
With `GCGCCAGC` the E-score was 0.277.
`AAATACAT` has an E-score of -0.138.
`ATAATACC` has an E-score of -0.0382.
The E-score of `AGCTGTAG` is reported as -0.185.
With `GGGAATCA` the E-score was -0.0658.
`AACTACTG` gave an E-score of -0.0541.
The E-score of `CTTGGATA` is reported as -0.0269.
For `ATAGATTA`, the E-score was -0.158.
`ACTGAGAA` has an E-score of 0.0055.
With `ATCTACAT` the E-score was -0.304.
The E-score of `GTTATACA` is reported as -0.105.
The E-score of `ATGCGCGA` is reported as 0.359.

Study 3
Target: RING finger protein unkempt homolog, zinc fingers 1-6, GST-SBP tag (UNK, Homo sapiens, UniProt Q9C0B0, residues 30-357)
UniProt Q9C0B0, sequence (30-357, looked up): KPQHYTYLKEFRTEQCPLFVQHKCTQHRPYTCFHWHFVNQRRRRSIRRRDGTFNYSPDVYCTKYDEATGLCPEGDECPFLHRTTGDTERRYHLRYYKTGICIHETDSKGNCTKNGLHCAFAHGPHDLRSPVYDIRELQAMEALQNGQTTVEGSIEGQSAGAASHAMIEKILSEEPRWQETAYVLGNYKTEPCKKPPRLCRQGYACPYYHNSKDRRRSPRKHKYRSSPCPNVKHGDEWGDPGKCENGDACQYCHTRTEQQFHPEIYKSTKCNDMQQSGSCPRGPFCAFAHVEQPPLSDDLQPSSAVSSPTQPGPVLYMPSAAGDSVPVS
Method: RNA Bind-n-Seq
Molecule type: RNA
Medium: in vitro
Tested at: not given
Notes: RNA with constant flanks, human and mouse sites, ends assumed
Relative to: input RNA pool
Direction: higher = stronger binding
Constant ends, left off below: GGGAGUUCUACAGUCCGACGAUC … CAACAGAGGAUUGAGCAUCA
For `AGUGCCUAUGAUUAUACAAUAUCACCCAUGGAGAAAGCCAUCGUGAAGACAGACAUUCAGAUAGCUGUCCCUUCUGGGUGCUAUGGAAGAGUAGCUCCACGUUCUGGCUUGGCUGUAAAG`, the bound/input enrichment was 0.103 ratio.
`GAGCCCAGCCGGCAGUUUGUAAAGGACUCAAUUCGGCUGGUUAAAAGAUGCACCAAACCCGACAGAAAAGAAUUCCAGAAGAUUGCCAUGGCUACAGCUAUAGGAUUUGCUAUCAUGGGA` has a bound/input enrichment of 0.161 ratio.
`CGAGUAAUGACGUGUGUGGCUGGGACCUUCUUUAUUCUGUGUUAAUGGCUAACCUGUUACACUGGGCUGGGUUGGGUAGGGUGUUCUGGCUUUUUUGUGGGGUUUUUAUUUUUAAAGAAA` gave a bound/input enrichment of 1.13 ratio.
For `ACCGCCCGGGUCGUGGAGCCAGGAGCGACGUCACCGCCAUGGCGGGCAUCAAAGCUUUAAUUAGUUUGUCCUUUGGAGGAGCGAUCGGGCUGAUGUUCCUGAUGCUUGGAUGUGCCCUUC`, the bound/input enrichment was 0.11 ratio.
`CAAGCAACUUACACUGGUUUGACAGUGGUCAGUUCCCCGCCCCACAGUCCAGCGUGCCUGCACUCACCCACCCUUCCUUUAAGACUUGGCUGCUGUUUUAAAGUUUGCCCUUCCUUCAAA` gave a bound/input enrichment of 0.247 ratio.
`GAAAUCCUAGGGCGCAGACAACAGCUAGAGACACCGAGUGAUGAGGAUAAUGACUCUUCCUUAAGUGAGUGUCUGUCUUCUCCCUCAUCUAGUCUCCAUUUUGGGGGCUCUGAUACAGUG` gave a bound/input enrichment of 0.175 ratio.
The bound/input enrichment of `ACUCAGUACAUCAUGUGCUCCUAAGAAUGAUAACACAGAUUAUUAAUUAUACUAGUUUACUGACAAAGUCACAAAGACAAACAGUAAAAUACAGGCUACCUUUAACCCCAUGAUUGGUGA` is reported as 0.537 ratio.
`AGAUUAGGCCAUGAUCCCUACAGACUAACUCCGGAUCCCUAUAGGGUAUCACCUAGGCCCUAUAGAAUAGCACCCAGGUCCUAUAGGAUAGCACCUAGGCCAUACAGGUUAGCACCUAGA` has a bound/input enrichment of 3.76 ratio.

Other studies, line by line
`PhoQ, residues 284 288 289 292 302 303 SLSVQF` gave a fold induction of 0.985 (PhoP, residues 12 14 15 18 19 AYFRS (Escherichia coli, UniProt P23836); Sort-seq, measured: YFP reporter; E. coli; PhoQ-PhoP variant library, added: 10 µM Mg2+; relative to: high Mg2+ state, higher = stronger signaling).

Repeated from above (study 2):
For `GCAGGTTA`, the E-score was 0.0967.
For `GGGCTTTA`, the E-score was 0.034.
`GAAGACTA` gave an E-score of -0.0855.
The E-score of `GTATCAAC` is reported as -0.0247.
`AATGGTTG` gave an E-score of -0.0186.
With `GCGCCAGC` the E-score was 0.277.
`AAATACAT` has an E-score of -0.138.
